Experimental data collected from several papers.
Compare with care: the assays were run in different laboratories. ± marks the error that the study gave.

COc1c(CCC[P+](c2ccccc2)(c2ccccc2)c2ccccc2)cc2c(c1OC)OCO2.[I-]  LC50 (OVCAR-4; SRB): > -4 log M
CC(C)NCCc1c[nH]c2cccc(O)c12.O=C(O)/C=C/C(=O)O  body temperature change (C57BL/6J mice; subcutaneous, 3 mg/kg; reference: pre-session baseline): 0 ± 0.1 °C
C[C@]12CC[C@H]3[C@@H](CC=C4CC(O)CC[C@@]43CO)[C@@H]1CCC2O (stereo partly drawn)  plasma ALT level (GAN diet MASH rats; ip, 20 mg/kg, two weeks; reference: GAN vehicle): decreased
Nc1ncnc2c1ncn2[C@@H]1O[C@@H]2COP(=O)(O)O[C@H]3[C@@H](O)[C@H](n4cnc5c(=O)[nH]cnc54)O[C@@H]3COP(=O)(O)O[C@H]2[C@H]1O  pathway fold enrichment (HFF-1; RNA sequencing, item: Interleukin-4 and -13 signaling; upregulated pathway; reference: Zika virus alone): 5.46
COc1cc(CCC[P+](c2ccccc2)(c2ccccc2)c2ccccc2)c(OC)c2c1OCO2.[I-]  TGI (ACHN; SRB): -4.68 log M
CC[C@H](C)[C@@H]1NC(=O)[C@@H]2CCCN2C(=O)[C@H](CC(C)C)NC(=O)[C@H](CC(C)C)NC(=O)CNC(=O)[C@@H](NC(=O)[C@@H](NC(=O)[C@H](CC(=O)O)NC(=O)CNC(=O)[C@@H](NC(=O)[C@H](C)NC(=O)CNC(=O)[C@H](CCCCN)NC(=O)[C@H](CC(C)C)NC(=O)[C@H](CC(C)C)NC(=O)[C@H](CCCCN)NC(=O)CNC(=O)[C@@H](NC(=O)[C@@H](N)CC(C)C)C(C)C)C(C)C)C(C)C)CSSC[C@@H](C(=O)O)NC1=O  log2 fold change (RNA-seq, item: Mei4; mouse, traumatic brain injury model, frontal cortex and hippocampus; dose not given; reference: TBI alone): 1.52
NC(=O)Nc1cc(-c2cccc(F)c2)sc1C(=O)N[C@H]1CCCNC1  maximum inhibition (human coronavirus OC43; virus-induced cell killing; MRC-5; maximum over 10 doses): 0%
Cc1cc(OCC(O)CN2CCN(c3cccc(Cl)c3)CC2)ccc1Cl (stereo not drawn)  maximum response (Vero-E6; CellTiter-Glo ATP; 72 h, first round 5-point; reference: DMSO 0%, hyamine -100%, more negative, more toxic): -6.69%
O=C(c1ccc(OCCN2CCCCC2)cc1)c1c(-c2ccc(O)cc2)sc2cc(O)ccc12  maximum inhibition (human coronavirus OC43; virus-induced cell killing; MRC-5; maximum over 10 doses): 1.26%
CCNCCc1c[nH]c2cccc(O)c12.CCNCCc1c[nH]c2cccc(O)c12.O=C(O)CCC(=O)O  body temperature change (C57BL/6J mice; subcutaneous, 1 mg/kg; reference: pre-session): -0.5 ± 0.1 °C
CC(/C=C/C(=O)NO)=C\[C@@H](C)C(=O)c1ccc(N(C)C)cc1  maximum inhibition (human coronavirus OC43; virus-induced cell killing; MRC-5; maximum over 10 doses): 0%
CCc1ccc(Sc2cc(C(=O)NCCCN3CCCC(C)C3)c3ccccc3n2)cc1 (stereo not drawn)  cytotoxicity efficacy (Vero-E6; CellTiter-Glo ATP; concentration not given, 72 h, first round 5-point; reference: DMSO 0%, hyamine -100%, more negative, more toxic): 0%

Excerpt of the above:
NC(=O)Nc1cc(-c2cccc(F)c2)sc1C(=O)N[C@H]1CCCNC1  maximum inhibition (human coronavirus OC43; virus-induced cell killing; MRC-5; maximum over 10 doses): 0%
